Results gathered from unrelated publications.
Several values in a cell are separate wells, animals, samples, runs or records. ± marks the error that the study gave.

For `N#C[C@@H]1CC(F)(F)CN1C(=O)CNC(=O)c1ccnc2c(NC(=O)[C@H](CCCCNC(=O)CCOCCOCCOCCOCCOCCOCCNC(=O)CN3CCN(CC(=O)[O-])CCN(CC(=O)[O-])CCN(CC(=O)[O-])CC3)NC(=O)CCCc3ccc(I)cc3)cccc12.[177Lu+3]`, the tissue uptake was 0.48 ± 0.1 %ID/g (mouse, U-87 MG tumour xenograft, brain; 1 h).
The tissue uptake of `COc1cccc(OC)c1-c1cc(C(=O)NC2(C(=O)O)C3CC4CC(C3)CC2C4)nn1-c1ccc(C(=O)N(C)CCCN(C)CCCN(C)C(=O)[C@H](CCCCNC(=O)[C@H](CC(C)C)NC(=O)C2OC2C(=O)O)NC(=O)CN2CCN(CC(=O)[O-])CCN(CC(=O)[O-])CCN(CC(=O)[O-])CC2)cc1C(C)C.[177Lu+3]` (mixture of isomers) is reported as 0.9 %ID/g (mouse, HT-29 xenograft, spleen; 72 h post injection).
For `CC[C@H](C)[C@H](NC(=O)C[C@H](NC(=O)CN1CCN2CCN(CC1)CC(=O)[O][Al]([18F])[O]C(=O)C2)C(=O)O)C(=O)N[C@H]1CCc2cccc3c2N(C1=O)[C@H](C(=O)NCc1cn[nH]n1)C3`, the tissue uptake was 1.16 ± 0.37 %ID/g (C57BL/6J mouse, MC-38 tumour, blood; 30 min post injection, anti-PD-1 treated).
With `CC(C)Cc1ccc(C(C)C(=O)N[C@@H](CCCCNC(=O)CCOCCOCCOCCOCCOCCOCCNC(=O)CN2CCN(CC(=O)[O-])CCN(CC(=O)[O-])CCN(CC(=O)[O-])CC2)C(=O)Nc2cccc3c(C(=O)NCC(=O)N4CC(F)(F)C[C@H]4C#N)ccnc23)cc1.[177Lu+3]` (stereo partly drawn) the tissue uptake was 14.4 ± 1.62 %ID/g (mouse, U-87 MG tumour xenograft, lung; 1 h).
For `CCCC[C@H](NC(=O)CNC(=O)CNC(=O)[C@H](CCCCNC(=O)[C@H](CC(N)=O)NC(=O)C(C)c1ccc(CC(C)C)cc1)NC(=O)CN1CCN(CC(=O)O)CCN(CC(=O)O)CCN(CC(=O)O)CC1)C(=O)N[C@H]1CC(=O)NCCCC[C@@H](C(N)=O)NC(=O)[C@H](Cc2c[nH]c3ccccc23)NC(=O)[C@H](CCCNC(=N)N)NC(=O)[C@@H](Cc2ccccc2)NC(=O)[C@H](Cc2c[nH]cn2)NC1=O` (stereo partly drawn) [lutetium-177 labelled], the tissue uptake was 1.93 ± 0.43 %ID (C57 mouse, intestines; 2 h).
For `O=C([O-])CN1CCN(CC(=O)O)CCN(CC(=O)[O-])CCN(CC(=O)NCC2CCC(C(=O)NC(Cc3ccc4ccccc4c3)C(=O)NCCCCC(NC(=O)NC(CCC(=O)O)C(=O)O)C(=O)O)CC2)CC1.[212Pb+2]` (stereo not drawn), tissue uptake read “not detected” (measured: 212Pb; athymic mouse, C4-2 prostate xenograft, femur; intravenous, dose not given, 2 h).
For `COc1ccc2c(c1)C(C)(C)C(/C=C/C1=C(Oc3ccc(C(=O)NCCCCOc4cc(CN(Cc5ccccn5)Cc5ccccn5)cc(CN(Cc5ccccn5)Cc5ccccn5)c4)cc3)C(=C/C=C3/N(CCCCS(=O)(=O)[O-])c4ccc(OC)cc4C3(C)C)CCC1)=[N+]2CCCCS(=O)(=O)[O-].O=[N+]([O-])[O-].O=[N+]([O-])[O-].[99Tc+].[C-]#[O+].[C-]#[O+].[C-]#[O+].[Zn+2]`, the tissue uptake was 0.63 %ID/g and 0.96 %ID/g and 1.4 %ID/g and 2.05 %ID/g (BALB/c mouse, Staphylococcus aureus myositis, blood; 12 h).
The tissue uptake of `COc1ccc(Nc2nc(Nc3ccc(OCCOCCOCC[18F])cc3)ncc2Br)cc1` is reported as 6.48 ± 0.92 %ID/g (ICR mouse, S180 sarcoma-bearing, blood; intravenous, 370 kBq in 100 µL, 5 min).
`O=C([O-])CN1CCN(CC(=O)[O-])CCN(CC(=O)NCC2CCC(C(=O)NC(Cc3ccc4ccccc4c3)C(=O)NCCCCC(NC(=O)NC(CCC(=O)O)C(=O)O)C(=O)O)CC2)CCN(CC(=O)[O-])CC1.[68Ga+3]` (stereo not drawn) gave a tissue uptake of 0.31 ± 0.07 %ID/g (PET/CT; mouse 22Rv1 xenograft, blood; 1 h).
For `N#C[C@@H]1CC(F)(F)CN1C(=O)CNC(=O)c1ccnc2c(NC(=O)CCOCCOCCOCCOCCOCCOCCNC(=O)[C@H](CCCCNC(=O)CN3CCN(CC(=O)[O-])CCN(CC(=O)[O-])CCN(CC(=O)[O-])CC3)NC(=O)CCCc3ccc(I)cc3)cccc12.[177Lu+3]`, the tissue uptake was 0.55 ± 0.18 %ID/g (mouse, U-87 MG tumour xenograft, kidneys; 24 h).
`COc1cccc(OC)c1-c1cc(C(=O)NC2(C(=O)O)C3CC4CC(C3)CC2C4)nn1-c1ccc(C(=O)NCCNC(=O)[C@H](CCCCNC(=O)[C@H](CC(C)C)NC(=O)C2OC2C(=O)O)NC(=O)CN2CCN(CC(=O)[O-])CCN(CC(=O)[O-])CCN(CC(=O)[O-])CC2)cc1C(C)C.[177Lu+3]` (mixture of isomers) gave a tissue uptake of 0.49 %ID/g (mouse, HT-29 xenograft, spleen; 72 h post injection).
The tissue uptake of `[11CH3]N1CCC(NC(=O)c2cc(-c3c(O)cc(O)cc3Oc3ccc([N+](=O)[O-])cc3)on2)CC1` is reported as 5.2 ± 1.9 %ID (NMRI mouse, healthy, kidneys; intravenous, 5.5 MBq, 30 min).
The tissue uptake of `O=C([O-])CN1CCN(CC(=O)[O-])CCN(CC(=O)[O-])CC1.[44Sc+3]` is reported as 0.06 ± 0.01 %ID/g (BALB/c mouse, large intestine; intravenous, 1 h).
`COc1cccc(OC)c1-c1cc(C(=O)NC2(C(=O)O)C3CC4CC(C3)CC2C4)nn1-c1ccc(C(=O)N(C)CCCN(C)C(=O)[C@H](CCCCNC(=O)[C@H](CC(C)C)NC(=O)C2OC2C(=O)O)NC(=O)CN2CCN(CC(=O)[O-])CCN(CC(=O)[O-])CCN(CC(=O)[O-])CC2)cc1C(C)C.[177Lu+3]` (mixture of isomers) gave a tissue uptake of 0.13 %ID/g (mouse, HT-29 xenograft, muscle; 24 h post injection).
`CCCC[C@H](NC(=O)CNC(=O)CNC(=O)[C@H](CCCCNC(=O)[C@H](CCN)NC(=O)C(C)c1ccc(CC(C)C)cc1)NC(=O)CN1CCN(CC(=O)O)CCN(CC(=O)O)CCN(CC(=O)O)CC1)C(=O)N[C@H]1CC(=O)NCCCC[C@@H](C(N)=O)NC(=O)[C@H](Cc2c[nH]c3ccccc23)NC(=O)[C@H](CCCNC(=N)N)NC(=O)[C@@H](Cc2ccccc2)NC(=O)[C@H](Cc2c[nH]cn2)NC1=O` (stereo partly drawn) [lutetium-177 labelled] gave a tissue uptake of 2.08 ± 0.77 %ID (C57 mouse, intestines; 2 h).
With `COc1cccc(OC)c1-c1cc(C(=O)NC2(C(=O)O)C3CC4CC(C3)CC2C4)nn1-c1ccc(C(=O)N(C)CCOCCN(C)C(=O)[C@H](CCCCNC(=O)[C@H](CC(C)C)NC(=O)C2OC2C(=O)O)NC(=O)CN2CCN(CC(=O)[O-])CCN(CC(=O)[O-])CCN(CC(=O)[O-])CC2)cc1C(C)C.[177Lu+3]` (mixture of isomers) the tissue uptake was 0.98 %ID/g (mouse HT-29 xenograft, small intestine; 4 h post injection, biodistribution).
`O=C([O-])CN1CCN(CC(=O)[O-])CCN(Cc2cccc(C(=O)[O-])n2)CC1.[18F-].[Sc+3]` gave a tissue uptake of 0.44 ± 0.12 %ID/g (BALB/c mouse, small intestine; intravenous, 1 h).
The tissue uptake of `COc1ccc(Nc2nc(Nc3ccc(OCCOCC[18F])cc3)ncc2Br)cc1` is reported as 2.31 ± 0.18 %ID/g (ICR mouse, S180 sarcoma-bearing, blood; intravenous, 370 kBq in 100 µL, 120 min).
The tissue uptake of `CN(Cc1ccccc1)C(=O)CN1CCN(CC(=O)[O-])CCN(CC(=O)N(C)Cc2ccccc2)CC1.[18F-].[Sc+3]` is reported as 0.3 ± 0.02 %ID/g (BALB/c mouse, large intestine; intravenous, 1 h).
`O=C(O)CCCOc1ccc([18F])cc1-c1cc(-c2ccccc2C(F)(F)F)n(-c2ccccc2)n1` has a tissue uptake of 1.52 ± 0.21 %ID/g (mouse, bone; intravenous, dose not given, 5 min).
`CN(Cc1ccccc1)C(=O)CN1CCN(CC(=O)[O-])CCN(Cc2cccc(C(=O)[O-])n2)CC1.[177Lu+3]` gave a tissue uptake of 1.82 ± 0.06 %ID/g (BALB/c mouse, small intestine; intravenous, 1 h).
`Cc1n[nH]c(C)c1CCCOc1cc(C(=O)NCCCCC(NC(=O)CN2CCN(CC(=O)[O-])CCN(CC(=O)[O-])CCN(CC(=O)[O-])CC2)C(=O)NCC2CCC(C(=O)NC(Cc3ccc4ccccc4c3)C(=O)NCCCCC(NC(=O)NC(CCC(=O)O)C(=O)O)C(=O)O)CC2)ccc1F.[68Ga+3]` (stereo not drawn) has a tissue uptake of 6.07 ± 0.46 %ID/g (mouse 22Rv1 xenograft, kidney; 4 h).
With `COc1cccc(OC)c1-c1cc(C(=O)NC2(C(=O)O)C3CC4CC(C3)CC2C4)nn1-c1ccc(C(=O)N(C)CCOCCOCCN(C)C(=O)[C@H](CCCCNC(=O)[C@H](CC(C)C)NC(=O)C2OC2C(=O)O)NC(=O)CN2CCN(CC(=O)[O-])CCN(CC(=O)[O-])CCN(CC(=O)[O-])CC2)cc1C(C)C.[177Lu+3]` (mixture of isomers) the tissue uptake was 0.81 %ID/g (mouse, HT-29 xenograft, spleen; 24 h post injection).
`CN(Cc1ccccc1)C(=O)CN1CCN(CC(=O)[O-])CCN(CC(=O)[O-])CC1.[18F-].[Sc+3]` gave a tissue uptake of 0.31 ± 0.22 %ID/g (BALB/c mouse, large intestine; intravenous, 1 h).

For quick reference, copied from above:
`O=C(O)CCCOc1ccc([18F])cc1-c1cc(-c2ccccc2C(F)(F)F)n(-c2ccccc2)n1` has a tissue uptake of 1.52 ± 0.21 %ID/g (mouse, bone; intravenous, dose not given, 5 min).
The tissue uptake of `COc1cccc(OC)c1-c1cc(C(=O)NC2(C(=O)O)C3CC4CC(C3)CC2C4)nn1-c1ccc(C(=O)N(C)CCCN(C)CCCN(C)C(=O)[C@H](CCCCNC(=O)[C@H](CC(C)C)NC(=O)C2OC2C(=O)O)NC(=O)CN2CCN(CC(=O)[O-])CCN(CC(=O)[O-])CCN(CC(=O)[O-])CC2)cc1C(C)C.[177Lu+3]` (mixture of isomers) is reported as 0.9 %ID/g (mouse, HT-29 xenograft, spleen; 72 h post injection).
With `CC(C)Cc1ccc(C(C)C(=O)N[C@@H](CCCCNC(=O)CCOCCOCCOCCOCCOCCOCCNC(=O)CN2CCN(CC(=O)[O-])CCN(CC(=O)[O-])CCN(CC(=O)[O-])CC2)C(=O)Nc2cccc3c(C(=O)NCC(=O)N4CC(F)(F)C[C@H]4C#N)ccnc23)cc1.[177Lu+3]` (stereo partly drawn) the tissue uptake was 14.4 ± 1.62 %ID/g (mouse, U-87 MG tumour xenograft, lung; 1 h).
